Measurements collected from several papers.
Every numbered part comes from another study and shows a few of its results, in no order. Changes are numbered by the printed parent chain.

Set 1
Target: Histone acetyltransferase KAT6A, winged helix 1, GST fusion (KAT6A, Homo sapiens, UniProt Q92794, residues 1-85)
Technique: protein binding microarray
Molecule type: double-stranded DNA, one strand shown
Matrix: in vitro
Tested at: not given
Notes: 8-mer, flanks averaged, mean of 2 arrays, mostly near background
Baseline: not given
Direction: higher = stronger binding
Target sequence (chain): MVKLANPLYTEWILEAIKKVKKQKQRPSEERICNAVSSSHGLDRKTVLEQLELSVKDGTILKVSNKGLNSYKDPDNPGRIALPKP
Oligonucleotide | E-score
ACCCAAGC | -0.0207
AACAGCTT | -0.158
CCAAGGAA | -0.0555
CGATAAGA | -0.0839
CTCCACCA | -0.187
AGCGTTCC | 0.145
AGACGCAT | 0.0348
GTAATAGA | -0.0286
CTGATATA | -0.13
TATCCCCA | -0.251
AGGGGTAT | -0.149
AGGGATAC | -0.0997
GACATGGC | -0.0948
AGGTAAAT | -0.25
GTAGTACA | -0.0447
ATCTGCGC | 0.175
GCGCTTAC | 0.377
AGTATCGA | 0.0894
AGTTGCAT | -0.15
CCATGCAC | -0.222
AAACTAGT | -0.0246
CCTAAGAC | -0.122
CCTATTCC | 0.0842
GAGTCGGC | 0.212
ATCCTGGG | -0.125

Set 2
Target: Centromere-binding protein 1, full length, N-terminal tag (CBF1, Saccharomyces cerevisiae, UniProt P17106, residues 1-351)
Sequence of UniProt P17106 (whole entry, looked up): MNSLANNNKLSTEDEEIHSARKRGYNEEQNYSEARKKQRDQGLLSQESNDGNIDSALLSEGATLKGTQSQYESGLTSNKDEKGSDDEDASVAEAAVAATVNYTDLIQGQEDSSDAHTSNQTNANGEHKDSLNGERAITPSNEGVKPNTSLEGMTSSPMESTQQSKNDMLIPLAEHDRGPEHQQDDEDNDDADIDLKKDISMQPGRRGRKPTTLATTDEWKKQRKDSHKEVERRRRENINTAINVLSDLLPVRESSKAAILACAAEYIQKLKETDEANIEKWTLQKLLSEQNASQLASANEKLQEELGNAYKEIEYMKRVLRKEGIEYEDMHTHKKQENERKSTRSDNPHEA
Technique: protein-binding microarray
Molecule type: double-stranded DNA, one strand shown
Matrix: in vitro
Tested at: 0.8 µM
Notes: whole 60-bp probe, no competitor
Direction: higher = stronger binding
All sequences stand within: … GTCTTGATTCGCTTGACGCTGCTG
Oligonucleotide | fluorescence intensity [a.u.]
CTATTGGTCTGAAAACACGTGTAGTACTTTCTCTTC | 4120
CTATTTAAATTACACGACATCACTCTTATTGAATTC | 564
GAATACGTTCTTTTTCAGGTGATGGTGCCATTTTAG | 549
GAATACCCTGCCGGCCACATGCCGAATTAAATTTAG | 664
TGTACGAAGCTATAACATGTGCGTATAGTAGTTAGG | 686
CTAATTAGATTCCACCTGACTAATTGCATTACATTC | 1530
CTAATAGGTTGATTAAACGTGTGTTACTCGTTTTTC | 494
CTATTTTTTCCATCACACGTACTATGGCACCAATTC | 639
GAAAGTATTAGCCAACACGTTATCGATACATTTTAG | 615
GAATGACAAGAACATCTGGTGAAGCAGGCTACCTAG | 486
CTACGAATAATATATCACGAAATACGGAGGAATTTC | 576
CTAGCTTCTCTAAACCACCTGATGCTTCTATCTTTC | 887

Set 3
Target: Max dimerization protein 1, bHLH-zipper, MAX partner unstated (MXD1, Homo sapiens, UniProt Q05195, residues 56-136)
Technique: protein-binding microarray
Molecule type: double-stranded DNA, one strand shown
Matrix: in vitro
Tested at: not given
Notes: k-mer, scored over probes, only values ≥0.25
Direction: higher = stronger binding
Construct (chain): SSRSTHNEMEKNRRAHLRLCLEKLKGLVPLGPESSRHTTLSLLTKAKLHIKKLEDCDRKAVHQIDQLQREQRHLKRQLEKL
Oligonucleotide | E-score
CCCACACC | 0.297
AGCATGCG | 0.416
GTGCATGA | 0.27
CGTGTGGC | 0.357
ACTCATGG | 0.306
ACGTGTAC | 0.34
AGGGGCGG | 0.327
GGCCACGA | 0.26
CCCACGCC | 0.381
CGTGGGTC | 0.331
CGTGCACC | 0.373
AATACATG | 0.322
CGTGCCAC | 0.286
CCATATGG | 0.387
CATGCTTA | 0.403
CAGACACG | 0.287
ACGTTGCA | 0.265
ATGCGTGA | 0.333
CGCGTGCA | 0.405
CCGCGTGC | 0.442

Set 4
Target: CCND1, cyclin fold, Cln2 fusion (human)
Technique: yeast growth competition, sequencing
Matrix: yeast
Notes: weak parent motif
Baseline: not given
Direction: higher = stronger binding
Starting sequence: CDC6 docking peptide (human); TLKGRRLVFDNQL
Substitution | normalised enrichment score
F9C | -0.324
F9A | -0.292
F9P | 0.119
T1K | 0.363
G4H | 0.237
V8G | 0.244
L2G | 0.258
L7N | 0.0239
K3P | 0.0514
L13I | 0.66
Q12V | 0.623
F9D | 0.371
N11K | 0.0408
L13A | 0.565
N11P | 0.594
N11F | 0.978
G4M | 0.518
K3Q | 0.591
L2M | 0.406
Q12A | 0.398
L7K | 0.153

Set 5
Target: Hepatocyte nuclear factor 3-alpha (Foxa1, Mus musculus, UniProt P35582, residues 1-468, full length assumed)
Sequence of UniProt P35582 (whole entry, looked up): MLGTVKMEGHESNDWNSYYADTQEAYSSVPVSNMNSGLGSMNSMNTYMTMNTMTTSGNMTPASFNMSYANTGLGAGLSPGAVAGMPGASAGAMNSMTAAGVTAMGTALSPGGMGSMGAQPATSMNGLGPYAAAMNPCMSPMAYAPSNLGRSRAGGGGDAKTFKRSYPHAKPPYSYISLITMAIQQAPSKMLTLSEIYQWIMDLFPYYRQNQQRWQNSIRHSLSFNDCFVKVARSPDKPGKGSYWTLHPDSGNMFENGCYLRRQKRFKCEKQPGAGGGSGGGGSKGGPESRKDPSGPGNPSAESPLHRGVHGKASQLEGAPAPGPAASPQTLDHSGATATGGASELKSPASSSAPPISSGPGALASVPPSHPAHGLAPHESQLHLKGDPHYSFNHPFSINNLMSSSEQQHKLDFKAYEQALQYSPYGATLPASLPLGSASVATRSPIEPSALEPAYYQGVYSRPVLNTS
Technique: EMSA with sequencing
Molecule type: double-stranded DNA, one strand shown
Matrix: in vitro
Tested at: 10 and 20 nM
Notes: whole designed probe, mean of two concentrations, ends assumed
Baseline: negative control set to 0
Direction: higher = stronger binding
All sequences stand within: GTGAGCGGTGCCCATTGATGGGGAAC … TTTCACTGGGATCGTGGGGAC
Oligonucleotide | normalised bound fraction [ratio]
CAAGTTTGTGGTCCAGGAGCAACAGGTTATGCCATACAGCCTAGGTGTGTAGTAGGCTACACACCGTCTATGTTTGTGTTGTACACTCTTTGTGCAAACATTGTTGATGAAATCTTCTCACCATGACTCATGAACATACCCCTGTTGTTAAGCGATACATGACTGTACTTTTTTTAAAAAGTCCAAGGATATA | 0.425
AGAGGAATCCCAGAGAGCTGTTCTTTACAGTTTTGTTTCTTGTTTAAATTCGAGAACTAAAAATCCAGTCCCAGAGTGCGTACATAGTCAAAGCAAACATGGAAAGTTCAGAAGTTATGCAGTGAACCATCAGAGCCTATTAAGAATCTAATCTTTCTCCAAGTAATGTTGGGGTCAGGCAGCTAACTGCAAC | 0.194
AATCTGTGAGGATTTTTTGTTTAGAAATAAACAAATTACCCACTTCTCACTATCTTTTTGCACTAATACCTTGAAAAAATGTAAATTGGACAGTGTAATCTTGCAAAATTGTTGGCATGTAGGAGAGAATTTTTCTACTTTTCTAAAGATTCAAGACTCGTTTTTGAGTCCTAAAAACAAACACATTAAGGAC | 0.413
GGCAATATAATTATTTACTGGGTGCGTGGCTCACGCCTGTAATCCCAGCATTTTGGGAGGCCTAATTTGTTAAAATGACTAGATCTAAGAAATGTAATCTAAGCCAGTAACTTTCCTCTGTAGTAACAATAGCCGGTTGAAAATGAAAACTACACATTTTCATTCTTTCAGTGGTTCTCTTAAACTTTAGCAT | -0.0277
GAAGGAAATAATGGAGCCAACCATGCATATAACCTCAGGGAGAACATTCTAGGTAGAGGGAACAGCAAGTGCAAAGGCCCTGAAGTGGGGGTTAGATTACCTTGTTGCACAATCTGCACACAGGCCAGTACAATTGGAATGGATGGGAAATGTAAAAGAGAGAAGTTGAAAAGGCCAGGTGCAGTGGCTCATG | -0.0531
CAAACTTTGCTGTAGTTTAACCCTGTAAATCATTGGAAAGTTTATCAAATACCTTAAATGCTTTTGCAACTTATTCATTCCCTGGTTATTTGGGTAATCTAGTACAGCGAACAGTTGGATGAACTTTATCTGAACTATTATCACTGAGCTGTTGGGGGAAATTCCGTCTTTTCCAAATCTGTACTGCGATATA | 0.00393
GGTGTGACATATTCTCACTGCTATATATCAAAGCGTTAATGGTGGAATTTTGTCTTTGTAAAGCATTTGGAGTTATTTTCGAGAAAAGCGCTGTGTAATCTAGGAATTTATTTTAAGAACAACTCCATGTTTGTTGAGATACTTGTTTAGTTATTATGGCTTGGTCTAGTATCTGAAAATAGAATCAAAGTAA | 0.0606

Set 6
Target: RNA binding protein fox-1 homolog 2, RRM domain, GST-SBP tag (RBFOX2, Homo sapiens, UniProt O43251-10, residues 100-194)
Technique: RNA Bind-n-Seq
Molecule type: RNA
Matrix: in vitro
Tested at: 365 nM
Notes: natural RNA segment, single round, ends assumed
Baseline: no-protein control
Direction: higher = stronger binding
All sequences stand within: GGGAGUUCUACAGUCCGACGAUC … UGGAAUUCUCGGGUGCCAA
Target sequence (chain): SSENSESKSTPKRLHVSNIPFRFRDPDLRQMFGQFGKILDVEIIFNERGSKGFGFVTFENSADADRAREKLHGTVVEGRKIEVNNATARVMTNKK
Oligonucleotide | RBNS enrichment (R)
CUAAAAAGCAUUUUGAAACAUACAGAAUGUUCUAUUGUCAUUGGGAAAUUUUUCUUUCUAACCCAGUGGAGGUUAGAAAGAAGUUAUAUUCUGGUAGCAAAUUAACUUUA | 0.555
UCUCUCUCCUGGAGUCUGAAGCCUGCAGGUCCGGGGAGGAGGUUCGGGAUUCCCUGGUGGGCCUCGACGUCCCUUGGAUCAGAGGUCAUCCCUUCCUCCUCUCCUGGAAA | 0.331
CAACCCAGUUGUUCCAGCUGUUCACAACCAGUGUGUGAUUUUGCUUAGUUGGUGCCCAUUCUGCACCAGUUGUUUUACCCCUGCCGAUAACCAGCAGUCAGAGAUUCUUU | 0.671
AGGAGGCAGAGCCACAGCCAAGGCCCUGACCACUUCUGUGCCAGUUGUCUAAGCAGAGCGCCUCAGGGACGCUGGAAAUGCCUUAAGGAUAGAGGCUGGGCAUCACAUCA | 0.736
GAUGAUUUUCGGAUGUAGGAGAAUGGAAAUGAUAGAACAUUACAGCAAGAGACUGAAUGUUUCCUGAAGUAUUACCAUGACCCAAGGCAGAGAGAAACCAUGGGAACUCC | 0.239
UAUAGCAUUUAUGGUAAUCAUAUUAGACUUCUGUUUUCAAUCUCGUAUAGAAGUCUUCAUGAAAUGCUAUGUCAUUUCAUGUCCUGUGUCAGUUUAUGUUUUGGUCCACU | 0.263
AUUUCUGGACCCAGGGAAGGGAACUCAGCCCCUUACAACUCUUGGGGCUCCUCCAGGCCAGGGCCCUACACAAGAACUGUCCCCCAGCUCUGCUAUCCCCAUGGCCAUGA | 0.276
AGAACGUUUUUGUACAAUUUUUUUUCAUUUAAUUGGAAUGAUCUUCAGGUUUCUACAAAUAGGGUAAUUGUAAAUUUAAAGCAUUAGCAUUUAUUGGUGAAUAAUGUAUA | 0.939
UAAAACUUCGUUAGAAGAAAGUAAUAGUAUUAUUUGCAGAAAGCCAGUCGAUCACAGCCAUUACCAAUAAGUUCAACCUCAAAGUACUUCAUAAAAAUCUGACCAAUCUA | 0.447
GCCCAGGCCGGCCAUCUUCUGCUGCUGGUACUUGGAUGGGCAAUGGUCACUGUGUUUCCACACAGCAAAAACAGACGUAGCCAUAUCAGAUGGAAAACAUGCAUAGACAC | 0.477
AAGAGGUUUCAAGGAACUGUUUCGCUUGAUCUGCACCCUGCUGCUGUGUUCUGUGCUUUACACUGACAGAACCUGGGUUUUCAGUUGGCAAUCAUGGAAAGCAUGUUGUG | 0.957
UUUUUCUGUAUAUUAACUUGGGGGAUAUCGUUAAUAUUUAGGAUAUAAGAUUUGAGGUCAGCCAUCUUCAAAAAAGAAAAAAAAAUUGACUCAAGAAAGUACAAGUAAAC | 0.822
